Published values pooled from the literature.
Protocols differ between the studies behind these lines. Several values in a cell are separate wells, animals, samples, runs or records. ± marks the error that the study gave.

O=C(C[Se]C(=O)c1ccccc1Nc1cccc(C(F)(F)F)c1)Nc1cccc(C(F)(F)F)c1 — mean TGI (NCI60 ovarian subpanel; total growth inhibition, inhibitor; five-dose): 3.84 µM
NC1=C(Cl)C(=O)c2cccc([N+](=O)[O-])c2C1=O — selectivity index (MOLT-3; XTT; baseline: IC50 MRC-5 over IC50 MOLT-3): 2.31
Cc1ncsc1-c1ccc(C(C)NC(=O)C2CC(O)CN2C(=O)C(NC(=O)CCCCCCCCCCN2CCCC(Nc3ncc(Cl)c(Nc4ccccc4S(=O)(=O)C(C)C)n3)C2)C(C)(C)C)cc1 (stereo not drawn) — log2 fold change (22Rv1; RNA-seq, item: TMEM100 mRNA; concentration not given; baseline: DMSO): -2.7
Cc1[nH]c(=S)[nH]c(=O)c1/N=N/c1nnc(S)s1 — inhibition (Vero; cell viability, MTT; 1.25 µg/mL): 15.4 ± 1.42%
CCCC(CCC)C(=O)OCc1cn(-c2cc3ccccc3oc2=O)nn1 — growth (IGROV-1; NCI60 single dose; 10 µM): 96.8%
CNS(=O)(=O)Nc1nccc(Cc2c(C)c3ccc(Oc4ncccc4F)cc3oc2=O)c1F — IC50 (IPC-298; cell viability; 7 days): 0.000503 µM
COc1cc([C@@H]2O[C@@H](c3cc(OC)c(O[C@@H]4O[C@H](CO)[C@@H](O)[C@H](O)[C@H]4O)c(OC)c3)[C@H](CO)[C@H]2CO)cc(OC)c1O — protein expression (differentiating 3T3-L1 pre-adipocytes; Western blot, item: p18 p21 p27; concentration not given, day 1, mitotic clonal expansion; baseline: untreated): increased
COC(=O)c1cc(NC2=NC(=O)C(=Cc3ccc(C)cc3)S2)ccc1OC(C)=O — metabolite level (MCF7; GC-MS, item: Hydroxylamine; 1 µM; baseline: DMSO): 0.17 fold change
O=C(NCc1cc(F)cc(F)c1)[C@@]1(O)CCN(c2ccc3[nH]ccc3c2)C1=O — maximal inhibition (Breast PDX-derived tumour cells; colony formation, soft agar clonogenic; concentration not given, 8-10 days): 37%
O=C(C[Se]C(=O)c1cc2ccccc2s1)Nc1cccc(C(F)(F)F)c1 — mean TGI (NCI60 ovarian subpanel; total growth inhibition, inhibitor; five-dose): 3.37 µM
Cc1ccc([N+](=O)[O-])cc1S(=O)(=O)N(C)/N=C/c1cnc2ccc(Br)cn12 — PI-stained cells (HuT78; 200 nM): 29.5%
CCCCCCCCCCCCCCCC(=O)OCC(CSC[C@H](N)C(=O)N[C@@H](CO)C(=O)N[C@@H](CCCCN)C(=O)N[C@@H](CCCCN)C(=O)N[C@@H](CCCCN)C(=O)N[C@@H](CCCCN)C(=O)NCCCCCC(=O)N[C@@H](CCCCN)C(=O)N[C@@H](CC(C)C)C(=O)N[C@H](C(=O)N[C@@H](Cc1ccccc1)C(=O)N[C@@H](Cc1ccccc1)C(=O)N[C@@H](Cc1ccc2ccccc2c1)C(=O)O)C(C)C)OC(=O)CCCCCCCCCCCCCCC (stereo partly drawn) — relative protein level (BV-2; Western blot, item: MSR1; concentration not given; baseline: control): 1.28
C[C@@H]1Cc2c([nH]c3ccccc23)[C@@H](c2c(F)cc(/C=C/C(=O)O)cc2F)N1C12CC(C1)C2 — log2 fold change (MCF7; RNA-seq, item: RET mRNA; 1 µM, 24 h, E2-induced gene; baseline: DMSO vehicle): -1.02
CCN(C(=O)c1cc(F)ccc1Oc1nncnc1N1CCC2(C1)CN([C@H](CCCN(C)CCOC)C(C)C)C2)C(C)C — GI50 (SK-N-SH; cell growth; 72 h): > 10 µM
CO[C@@H]1[C@@H](OC(N)=O)[C@@H](O)[C@H](Oc2ccc3c(O)c(NC(=O)c4ccc(O)c(CC=C(C)C)c4)c(=O)oc3c2C)OC1(C)C — colony survival (HCT-116 BRCA2 wild-type; 50 µM, replicate A; baseline: untreated): 88.4%
CN(C)c1ccc(-n2cc(COC(=O)[C@]3(C)C=C(C(=O)OC(C)(C)C)C(=O)CC3)nn2)cc1 — pERK/ERK ratio (HeLa; quantitative western blot; concentration not given, 4 (unit not given), added: EGF): 0.2
Cc1ccc(-n2cc(CSc3nc4ccccc4n3Cc3cn(-c4ccc(C)cc4)nn3)nn2)cc1 — viability (Caco-2; MTT; 125 ppm): 12.3%
COC(=O)c1cc(NC2=NC(=O)C(=Cc3ccc(N(C)C)cc3)S2)ccc1OC(C)=O — metabolite level (MCF7; GC-MS, item: Pyroglutamic acid; 1 µM; baseline: DMSO): 0.07 fold change
CN(C)CCOc1cc(NC(=O)c2cccc(C(=O)Nc3cc(OCCN(C)C)c4ccccc4n3)n2)nc2ccccc12 — selectivity ratio (U2OS; cell viability, CellTiter-Glo; 72 h; baseline: IC50 U2OS over WI-38): 0.9
C1=[N+]2CCCC[N+]3=Cc4ccc5[n]4[Au-]23[n]2c1ccc2-c1nc2ccccc2nc1-5.F[P-](F)(F)(F)(F)F — TGI (IGROV-1; NCI60 five-dose screen): 4 -log M
CCN(CC)CC(=O)Nc1cccc(-n2cc(-c3ccc4ccc(-c5cn(-c6cccc(NC(=O)CN(CC)CC)c6)nn5)cc4c3)nn2)c1 — fold regulation (RCC4; PCR array, item: EGF; 5 x IC50, 2 h, normoxia; baseline: untreated): -1.11
CC(=O)Oc1ccccc1C(=O)[Se]CC(=O)Nc1cccc(C(F)(F)F)c1 — mean TGI (NCI60 ovarian subpanel; total growth inhibition, inhibitor; five-dose): 16.4 µM
Cn1ncc2cc(-c3cncc(Cl)c3N3CCC4(CCNC4=O)CC3)ccc21 — fold change in expression (LS174T; microarray, item: AGT; concentration not given, 24 h; baseline: untreated cells): 2.17
CC[C@H](CO)Nc1nc(NCc2ccc(-c3ccccn3)cc2)c2ncn(C(C)C)c2n1 — log2 fold change (MOLT-4; tandem mass tag proteomics, item: Q5SWA1; 1 µM, 5 h; baseline: DMSO): -2.12
COC(=O)[C@H](C)NC(=O)[C@H](C)NC(=O)c1csc(-c2cccnc2)n1 — EC50 (SK-OV-3; cell growth or viability): > 30 µM
C=CC(=O)N1CCCC(n2c(=O)c3ncccc3n(Cc3ccc(Oc4ccccc4)cc3)c2=O)C1 (stereo not drawn) — log2 fold change (Rec1; item: JUN; concentration not given; baseline: untreated): 1.05
COc1ccc2c(c1)c(CC(=O)[Se]CC(=O)Nc1cccc(C(F)(F)F)c1)c(C)n2C(=O)c1ccc(Cl)cc1 — mean growth percent (NCI60 ovarian subpanel; cell growth; 10 µM, 48 h, one-dose): -86%
O=C(CCCCCOc1ccc2ccccc2c1)N[C@@H](CO)C[C@@H](O)c1ccc(-c2ccccc2)cc1 — lactosylceramide level (HeLa; CERT activity, HPLC-MS/MS lipidomics, item: lactosylceramide 24:1; 1 µM, 24 h, not cell-number normalised): 6300 pmol/sample and 8020 pmol/sample and 8050 pmol/sample
O=[C]=[Mn-2]12(=[C]=O)(=[C]=O)[O]c3cc4c(cc3=[N+]1CCc1ccccc1)[O][Mn-2](=[C]=O)(=[C]=O)(=[C]=O)([N+]=4CCc1ccccc1)[n+]1ccc(cc1)C(=O)Oc1ccccc1OC(=O)c1cc[n+]2cc1 — viability reduction (HEK293; MTT; 50 µM, 48 h, photolysed compound): 45%
Cc1[nH]c(=S)[nH]c(=O)c1/N=N/c1nnc(S)[nH]1 — inhibition (Vero; cell viability, MTT; 5.0 µg/mL): 16.6 ± 0.92%
CN1CCCNC(=O)c2cccc(c2)C(=O)NCCCN(C)CCCNc2cccc3c2C(=O)c2cccc(c2C3=O)NCCC1 — log2 fold change (SAS; RNA-Seq, item: SAE1 mRNA; 1 µM, 6 h; baseline: untreated cells): -0.543
O=C(C[Se]C(=O)C12CC3CC(CC(C3)C1)C2)Nc1cccc(C(F)(F)F)c1 — GI50 (NCI60 ovarian subpanel; cell growth, inhibitor; five-dose): 4.51 µM
O=CCNCCOn1c(=O)n(OCCNCCO)c(=O)n(OCCNCCOn2c(=O)n(OCCNCCO)c(=O)n(OCCNCCO)c2=O)c1=O — viability (A549; cell growth or viability, MTT; 25 µg/mL, 24 h): 48.4%
CC(C)c1ccc(N(C)c2ccc3c(c2)OCC[C@H]3CNc2cnccc2C(=O)O)cc1 — IC50 (C32; cell growth or viability, ATP luminescence; 7 days): 0.00536 µM
O=C(C[Se]C(=O)c1cc2ccccc2[nH]1)Nc1cccc(C(F)(F)F)c1 — GI50 (NCI60 ovarian subpanel; cell growth, inhibitor; five-dose): 1.33 µM
COc1cc(N2CCN(C(=O)C3CCCN3)CC2)ccc1Nc1ncc(Cl)c(Nc2ccccc2P(C)(C)=O)n1 (stereo not drawn) — late apoptotic cells (Ba/F3 EML4-ALK; flow cytometry; concentration not given, 0.5 h): 2.6% and 2.79% and 2.71%

For quick reference, copied from above:
Cc1ncsc1-c1ccc(C(C)NC(=O)C2CC(O)CN2C(=O)C(NC(=O)CCCCCCCCCCN2CCCC(Nc3ncc(Cl)c(Nc4ccccc4S(=O)(=O)C(C)C)n3)C2)C(C)(C)C)cc1 (stereo not drawn) — log2 fold change (22Rv1; RNA-seq, item: TMEM100 mRNA; concentration not given; baseline: DMSO): -2.7
Cc1[nH]c(=S)[nH]c(=O)c1/N=N/c1nnc(S)s1 — inhibition (Vero; cell viability, MTT; 1.25 µg/mL): 15.4 ± 1.42%
CCCC(CCC)C(=O)OCc1cn(-c2cc3ccccc3oc2=O)nn1 — growth (IGROV-1; NCI60 single dose; 10 µM): 96.8%
CNS(=O)(=O)Nc1nccc(Cc2c(C)c3ccc(Oc4ncccc4F)cc3oc2=O)c1F — IC50 (IPC-298; cell viability; 7 days): 0.000503 µM
